Experimental data from different studies.

Structure (SMILES) | tested on | assay | test system | setting | quantity | value
COc1cc(CCC[P+](c2ccccc2)(c2ccccc2)c2ccccc2)c(OC)c2c1OCO2.[I-] | CAKI-1 | SRB |  |  | TGI | -5.14 log M
COc1c(C)c2c(c(O)c1C/C=C(\C)CCC(=O)O)C(=O)OC2 | CAKI-1 | cell proliferation | kidney cancer |  | IC50 | 0.977 µM
O=c1cnn([C@@H]2O[C@H](CO)[C@@H](O)[C@H]2O)c(=O)[nH]1 | human coronavirus OC43 | virus-induced cell killing | MRC-5 | screen | maximum inhibition | 7.24%
CC(C)N1CCC(NC2CCN(c3cccc(-c4cc5cc(F)ccc5[nH]4)c3)CC2)CC1 | CAKI-1 |  |  |  | CC50 | 5.74 µM
Cn1cncc1C1=CN(c2ncnc3[nH]cnc23)CCS1 | CAKI-1 |  |  | renal cancer | CC50 | > 200 µM
Cc1cnc(Nc2ccc(OCCN3CCCC3)cc2)nc1Nc1cccc(S(=O)(=O)NC(C)(C)C)c1 | human coronavirus OC43 | virus-induced cell killing | MRC-5 | screen | maximum inhibition | 15.1%
CN1CCN(C2(CNC3CCN(c4cccc(-c5cc6cc(F)ccc6[nH]5)c4)CC3)CCC2)CC1 | CAKI-1 |  |  |  | GI50 | 1.71 µM
CCN(CC)c1ccc(C=NNC(=O)CSc2nc3ccccc3c(=O)n2Cc2ccc(S(N)(=O)=O)cc2)c(O)c1 | CAKI-1 | NCI five-dose screen |  |  | CC50 | > 100 µM
COc1c(CCC[P+](c2ccccc2)(c2ccccc2)c2ccccc2)cc2c(c1OC)OCO2.[I-] | CAKI-1 | SRB |  |  | TGI | -5.13 log M
Cc1cc(N(CCOS(C)(=O)=O)CCOS(C)(=O)=O)ccc1C(=O)O | CAKI-1 | cell growth |  |  | IC50 | 15.8 µg/mL

Some of these lines once more:
Structure (SMILES) | tested on | assay | test system | setting | quantity | value
O=c1cnn([C@@H]2O[C@H](CO)[C@@H](O)[C@H]2O)c(=O)[nH]1 | human coronavirus OC43 | virus-induced cell killing | MRC-5 | screen | maximum inhibition | 7.24%
CC(C)N1CCC(NC2CCN(c3cccc(-c4cc5cc(F)ccc5[nH]4)c3)CC2)CC1 | CAKI-1 |  |  |  | CC50 | 5.74 µM
